Measurements of several laboratories.
A part holds a random share of what one study measured.

Series 1
Target: Interferon regulatory factor 7, full length, phosphomimetic (IRF7, Homo sapiens, UniProt Q92985, residues 1-503, S471D/S472D/S475D/S476D/S477D/S483D/S484D/S487D)
Chain of UniProt Q92985 (whole entry, unmodified, looked up): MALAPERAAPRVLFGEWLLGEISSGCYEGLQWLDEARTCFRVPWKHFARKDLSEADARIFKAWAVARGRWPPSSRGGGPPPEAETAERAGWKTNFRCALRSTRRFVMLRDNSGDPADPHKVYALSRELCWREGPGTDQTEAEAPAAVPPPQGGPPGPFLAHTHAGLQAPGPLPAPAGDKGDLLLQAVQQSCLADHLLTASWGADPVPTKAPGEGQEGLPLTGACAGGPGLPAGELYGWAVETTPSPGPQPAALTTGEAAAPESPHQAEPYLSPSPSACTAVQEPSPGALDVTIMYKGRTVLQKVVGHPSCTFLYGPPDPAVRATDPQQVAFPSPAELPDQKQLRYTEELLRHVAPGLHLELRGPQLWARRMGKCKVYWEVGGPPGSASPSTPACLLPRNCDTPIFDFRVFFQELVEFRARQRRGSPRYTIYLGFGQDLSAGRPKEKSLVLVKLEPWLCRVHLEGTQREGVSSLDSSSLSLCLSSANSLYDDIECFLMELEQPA
Method: protein-binding microarray
Molecule type: double-stranded DNA, one strand shown
Sample: in vitro
Concentration: 2200 nM top
Notes: 60-bp whole probe
Together with: salmon DNA 0.4 mg/ml
Baseline: random background probes
Reading: higher = stronger binding
`GCCTAGCACTTAGGTCTCAGTATCGGTTAGTGCTAGGTCTTGATTCGCTTGACGCTGCTG`: “fitted relative affinity” 0.802 z-score.
`GCCTAGCACTCACTCTTGCTTTTTAGACTGTGCTAGGTCTTGATTCGCTTGACGCTGCTG`: “fitted relative affinity” 1.65 z-score.
For `GCCTAGCACCTTAACCTGGGTCTCTGAAGGTGCTAGGTCTTGATTCGCTTGACGCTGCTG`, “fitted relative affinity” read -0.0244 z-score.
`GCCTAGCACTCATGTGTCTGATTATTACTGTGCTAGGTCTTGATTCGCTTGACGCTGCTG` — result for “fitted relative affinity”: 0.957 z-score.

Series 2
Target: Transcription factor Sp1 (SP1, Homo sapiens, UniProt P08047, residues 1-785, full length assumed)
Chain of UniProt P08047 (whole entry, looked up): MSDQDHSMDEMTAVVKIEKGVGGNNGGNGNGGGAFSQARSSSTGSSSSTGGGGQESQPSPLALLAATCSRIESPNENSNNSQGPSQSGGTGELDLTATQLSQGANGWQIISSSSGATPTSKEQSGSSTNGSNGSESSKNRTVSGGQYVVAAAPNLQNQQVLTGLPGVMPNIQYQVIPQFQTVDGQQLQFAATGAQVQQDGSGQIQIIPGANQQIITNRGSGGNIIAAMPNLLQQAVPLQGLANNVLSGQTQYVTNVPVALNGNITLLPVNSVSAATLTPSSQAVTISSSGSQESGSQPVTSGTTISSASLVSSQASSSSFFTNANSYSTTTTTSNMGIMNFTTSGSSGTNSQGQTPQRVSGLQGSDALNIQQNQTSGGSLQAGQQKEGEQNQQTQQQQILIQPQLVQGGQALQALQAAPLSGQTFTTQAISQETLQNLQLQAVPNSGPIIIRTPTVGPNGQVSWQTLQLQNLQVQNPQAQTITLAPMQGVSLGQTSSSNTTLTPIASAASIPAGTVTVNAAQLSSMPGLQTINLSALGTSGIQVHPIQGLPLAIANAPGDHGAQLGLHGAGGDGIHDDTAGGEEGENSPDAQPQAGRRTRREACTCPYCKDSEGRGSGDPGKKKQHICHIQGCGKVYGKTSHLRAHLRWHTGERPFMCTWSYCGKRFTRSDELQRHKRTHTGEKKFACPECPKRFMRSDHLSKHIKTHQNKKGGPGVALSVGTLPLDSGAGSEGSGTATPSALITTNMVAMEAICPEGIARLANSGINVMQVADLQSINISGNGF
Method: protein-binding microarray
Molecule type: double-stranded DNA, one strand shown
Sample: in vitro
Concentration: not given
Notes: k-mer, scored over probes, only values ≥0.25
Reading: higher = stronger binding
With `ATATCATA` the E-score was 0.264.
The E-score of `ACCCACAT` is reported as 0.263.
`GTATTGTA` has an E-score of 0.262.
`CCATATGG` has an E-score of 0.317.

Series 3
Target: Histone acetyltransferase KAT6A, winged helix 2, GST fusion (KAT6A, Homo sapiens, UniProt Q92794, residues 85-181)
Method: protein binding microarray
Molecule type: double-stranded DNA, one strand shown
Sample: in vitro
Concentration: not given
Notes: 8-mer, flanks averaged, mean of 2 arrays, mostly near background
Baseline: not given
Reading: higher = stronger binding
Target sequence (chain): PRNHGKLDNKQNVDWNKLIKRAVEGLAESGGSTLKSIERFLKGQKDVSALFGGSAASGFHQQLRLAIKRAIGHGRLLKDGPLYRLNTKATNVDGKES
`GAACACTC` gave an E-score of 0.153.
`AGTTATGC` gave an E-score of 0.0484.
`CGCCACTA` has an E-score of 0.0774.
For `GAGCGCCC`, the E-score was 0.119.
The E-score of `TGAGTGAA` is reported as -0.141.

Mixed results
`PhoQ, residues 284 288 289 292 302 303 GANMMA` has a fold induction of 2.47 (PhoP, residues 12 14 15 18 19 AWHSL (Escherichia coli, UniProt P23836); Sort-seq, measured: YFP reporter; E. coli; PhoQ-PhoP variant library, together with: 10 µM Mg2+; baseline: high Mg2+ state, higher = stronger signaling).

For quick reference, copied from above (series 2):
`GTATTGTA` has an E-score of 0.262.
